Earlier results, collected from citations in different studies.
Protocols differ between the studies behind these lines. Several values in a cell are separate wells, animals, samples, runs or records. ± marks the error that the study gave.
UniProt P28223, sequence (whole entry, looked up): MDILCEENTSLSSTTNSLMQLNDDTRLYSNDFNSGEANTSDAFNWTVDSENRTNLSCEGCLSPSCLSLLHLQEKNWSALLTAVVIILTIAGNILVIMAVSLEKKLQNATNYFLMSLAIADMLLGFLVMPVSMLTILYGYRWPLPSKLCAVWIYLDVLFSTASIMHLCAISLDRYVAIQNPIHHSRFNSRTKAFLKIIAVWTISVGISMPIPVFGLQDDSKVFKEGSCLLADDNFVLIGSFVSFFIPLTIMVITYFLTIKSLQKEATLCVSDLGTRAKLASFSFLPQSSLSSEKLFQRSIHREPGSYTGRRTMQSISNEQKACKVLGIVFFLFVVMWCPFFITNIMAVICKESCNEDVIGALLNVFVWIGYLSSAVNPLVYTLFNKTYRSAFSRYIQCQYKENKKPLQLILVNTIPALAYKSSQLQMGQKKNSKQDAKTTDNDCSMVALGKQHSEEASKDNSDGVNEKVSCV
UniProt Q12809, sequence (whole entry, looked up): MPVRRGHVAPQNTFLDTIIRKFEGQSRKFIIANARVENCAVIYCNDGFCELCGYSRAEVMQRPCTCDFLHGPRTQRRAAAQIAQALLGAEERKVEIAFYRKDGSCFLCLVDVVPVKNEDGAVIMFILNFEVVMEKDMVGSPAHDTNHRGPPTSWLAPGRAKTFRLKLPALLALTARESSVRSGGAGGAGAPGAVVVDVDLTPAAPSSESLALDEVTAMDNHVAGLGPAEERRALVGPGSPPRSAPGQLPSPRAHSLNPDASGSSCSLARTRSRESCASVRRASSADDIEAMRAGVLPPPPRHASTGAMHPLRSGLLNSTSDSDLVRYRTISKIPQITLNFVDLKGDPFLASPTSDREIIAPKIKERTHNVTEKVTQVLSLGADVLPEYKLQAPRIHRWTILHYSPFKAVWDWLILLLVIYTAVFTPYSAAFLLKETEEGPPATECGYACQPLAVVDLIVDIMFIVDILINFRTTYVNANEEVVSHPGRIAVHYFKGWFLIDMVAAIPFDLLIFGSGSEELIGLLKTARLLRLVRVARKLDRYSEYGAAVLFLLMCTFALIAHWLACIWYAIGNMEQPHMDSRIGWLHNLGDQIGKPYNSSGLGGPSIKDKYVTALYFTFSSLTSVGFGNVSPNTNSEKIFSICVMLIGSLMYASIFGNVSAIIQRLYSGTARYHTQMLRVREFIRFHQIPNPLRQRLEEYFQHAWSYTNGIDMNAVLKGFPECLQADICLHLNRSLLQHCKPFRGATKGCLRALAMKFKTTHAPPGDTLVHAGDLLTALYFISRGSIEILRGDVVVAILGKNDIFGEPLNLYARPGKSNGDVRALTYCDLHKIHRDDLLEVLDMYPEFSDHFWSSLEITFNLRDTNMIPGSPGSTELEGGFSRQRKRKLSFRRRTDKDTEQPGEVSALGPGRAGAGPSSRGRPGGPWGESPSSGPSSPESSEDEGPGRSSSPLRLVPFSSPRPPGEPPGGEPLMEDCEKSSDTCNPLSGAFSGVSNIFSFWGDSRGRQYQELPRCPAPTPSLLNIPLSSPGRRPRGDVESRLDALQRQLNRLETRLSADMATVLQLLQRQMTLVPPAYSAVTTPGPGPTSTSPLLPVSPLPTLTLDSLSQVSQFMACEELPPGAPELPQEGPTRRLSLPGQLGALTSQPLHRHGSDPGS

NCCN1CCN(CC(=O)O)Cc2cccc(n2)CN(CC(=O)O)CC1  log KH2 (protonation constant; 0.15 M NaCl): 8.93
CCOC(=O)C(c1cc(Cl)c2cccnc2c1O)c1c[nH]c2ncccc12 (centres unmarked)  IC50 (MRC-5 fibroblasts; cell viability): 46.9 µM and 45.6 µM
O=C(O)CN1CCNCCN(CC(=O)O)Cc2cccc(n2)C1  log KH2 (protonation constant; 0.15 M NaCl): 5.97
CC1(N(CC(=O)O)CC(=O)O)CN(CC(=O)O)CCN(CC(=O)O)C1  protonation constant (log) (pH-potentiometry, item: logK5H; 0.1 M KCl; 25 °C): 1.56
O=C(O)CN(CC(=O)O)[C@H]1CCCC[C@@H]1N(CC(=O)O)Cc1ccccn1  log KH1 (protonation constant; 0.15 M NaCl): 10.2
O=C(C=C(O)C(F)(F)C(F)(F)F)c1ccsc1  Ki (Plasmodium falciparum formate-nitrite transporter; binding, FCCS; isolated protein): 0.085 ± 0.004 µM
O=C(O)CN1CCOCCN(CC(=O)O)Cc2cccc(n2)C1  log KH2 (protonation constant; 0.15 M NaCl): 7.66
Cc1ccc2c(c1)nc(CCN1C(=O)c3cccc4cccc(c34)C1=O)n2-c1ccncc1  Cmax (Sprague-Dawley rat; intravenous, 2.5 mg/kg): 3500 ng/mL
Cn1cc(C(=O)NCc2ccc(Cl)cc2)c(=O)c2cc(CN3CCOCC3)sc21  Hill slope (KCNH2 (Homo sapiens, UniProt Q12809)): 0.89
O=C(C=C(O)C(F)(F)C(F)(F)F)c1ccc(NCC(F)(F)F)nc1  Ki (Plasmodium falciparum formate-nitrite transporter; binding, FCCS; isolated protein): 0.024 ± 0.006 µM
O=c1ccc(OCCCN2CCCCC2)nn1-c1ccc(Cl)c(Cl)c1  inhibition (HTR2A (Homo sapiens, UniProt P28223); 1.0 µM): 51.5 ± 3.8%
CCOC(=O)C(c1ccc2ccccc2c1O)c1c[nH]c2ccccc12 (centres unmarked)  IC50 (COLO 320 ABCB1-resistant colon; cytotoxicity): 54.9 µM and 53.8 µM and 52.2 µM
COc1ccc(Nc2nc(Nc3ccc(OCC[18F])cc3)ncc2Br)cc1  tissue uptake (S180 tumour-bearing mice, kidney; intravenous, 15 min): 1.62 ± 0.23 %ID/g
Oc1c(C(c2ccccc2)c2c[nH]c3ccccc23)cc(Cl)c2cccnc12 (centres unmarked)  IC50 (COLO 205; cell viability): 2.53 µM
CCCCCCCCCC(=O)NC1CCCC1  inhibition (Pseudomonas aeruginosa; elastase production; PAO1; 250 µM): 75%
Oc1c(Cc2c[nH]c3ncccc23)cc(Cl)c2cccnc12  IC50 (COLO 320 ABCB1-resistant colon; cytotoxicity): 23 µM and 22.5 µM and 21.9 µM
O=S(=O)(c1ccc(-c2ccc3ncnc(Nc4ccc(OCc5cccc(F)c5)c(Cl)c4)c3c2)cc1)N1CCSCC1  EC50 (Trypanosoma brucei; parasite growth): 0.47 µM
